Measurements collected from several papers.

| SMILES | assay | test system | setting | adverse event incidence [%] |
| --- | --- | --- | --- | --- |
| Cc1c(Cl)c(C)[n+]([O-])c(Cl)c1-c1noc(-c2cc(O)c(O)c([N+](=O)[O-])c2)n1 | measured: Moderate severity | healthy Chinese subjects | oral, 50 mg, 10 days | 0 |
| Cc1ccc(Sc2ccccc2N2CCNCC2)c(C)c1 | TEAE abdominal distension | healthy adult men | oral, 40 mg single dose, 10 days | 0 |
| CC[C@H](C)CCCCC(=O)N[C@@H](CCN)C(=O)N[C@H](C(=O)N[C@@H](CCN)C(=O)N[C@H]1CCNC(=O)[C@H]([C@@H](C)O)NC(=O)[C@H](CCN)NC(=O)[C@H](CCN)NC(=O)[C@H](CC(C)C)NC(=O)[C@@H](Cc2ccccc2)NC(=O)[C@H](CCN)NC1=O)[C@@H](C)O | measured: gastrointestinal disorders | normal renal function | intravenous, 0.75 mg/kg | 75 |
| CC(=O)O[C@H]1C(=O)[C@@]2(C)[C@H]([C@H](OC(=O)c3ccccc3)[C@]3(O)C[C@H](OC(=O)[C@H](O)[C@@H](NC(=O)c4ccccc4)c4ccccc4)C(C)=C1C3(C)C)[C@]1(OC(C)=O)CO[C@@H]1C[C@@H]2O | measured: peripheral neuropathy | patients with advanced solid tumours | intravenous, dose not given, grade 3 and 4, possibly related to drug | 4 |
| CC(C)n1c(Nc2cccnc2)nc2cnc(Nc3ccc(N4CCN(C)CC4)cc3)nc21 | measured: Headache | healthy male subjects | oral, 100 mg, added: gemfibrozil | 0 |
| O=C1CCc2ccc(OCCCCN3CCN(c4cccc(Cl)c4Cl)CC3)cc2N1 | measured: Constipation | patients, CYP2D6 normal metabolizers | dose not given, long-acting oral or depot | 0.9 |
| FC(F)(F)c1ccc(CNc2ccc(Cc3c[nH]c4ncc(Cl)cc34)cn2)cn1 | measured: Anaemia | patients with advanced solid tumours | oral, dose not given, all grades, possibly related to drug | 33 |
| Cc1c(C(=O)O)ccc2c3n(nc12)[C@@H]1[C@H](C3)N(CC2CC2)[C@@]2(C(=O)Nc3cc(Cl)ccc32)[C@H]1c1cccc(Cl)c1F | phase Ia trial, measured: Fatigue | cancer patients | oral, dose not given, all patients all grades | 59.3 |

A few entries again:
| SMILES | assay | test system | setting | adverse event incidence [%] |
| --- | --- | --- | --- | --- |
| CC[C@H](C)CCCCC(=O)N[C@@H](CCN)C(=O)N[C@H](C(=O)N[C@@H](CCN)C(=O)N[C@H]1CCNC(=O)[C@H]([C@@H](C)O)NC(=O)[C@H](CCN)NC(=O)[C@H](CCN)NC(=O)[C@H](CC(C)C)NC(=O)[C@@H](Cc2ccccc2)NC(=O)[C@H](CCN)NC1=O)[C@@H](C)O | measured: gastrointestinal disorders | normal renal function | intravenous, 0.75 mg/kg | 75 |
